Results collected from several papers.
A part holds a random share of what one study measured.

Study 1
Target: Fragile X messenger ribonucleoprotein 1, C-terminal low-complexity region (Fmr1, Mus musculus, UniProt P35922)
Technique: RNA Bind-n-Seq
Molecule type: RNA
Matrix: in vitro
Concentration: 200 nM
Setting: whole 134-nt RNA, ends assumed
Together with: 150 mM KCl
Relative to: input library
Reading: higher = stronger binding
Constant ends, left off below: GGGAGUUCUACAGUCCGACGAUC … UGGAAUUCUCGGGUGUCAAGG
For `CACAGACAACACGCACCCACAUAGACACAGAGGGAAGGGGUUGGGAUGGGGACAGGGUGCACAGCAGGGCGGGGUAGGACCCCAGCCCCU`, the log2 enrichment was 1.27.
`UCCUCAAGUCCUGUGCUACACAUCGUAUGUACCGAAUCGGCCGGCCGGCCGGAAAGUAUUAUGUUACGCCGUUCGGAUCUGCACUUCCAG` has a log2 enrichment of 0.429.
`GUCCUGUGCUACACAUCGUAUGUACCGAAUCGGGAAAAAGGGAAAAAGGGAAAAAGGGGAAAGUAUUAUGUUACGCCGUUCGGAUCUGCA` gave a log2 enrichment of -0.0727.
`ACCAUGCAGGUGGGCAUCUUUGGGAAGUGGGGCAAGGGGGGGAUAGGGAGGGGGGUAACACUUUAGGAACAGGUGGUCCCAGGUCGUUUC` has a log2 enrichment of 0.523.
`UGGCCCUUGUGGCAUGCGGGGAGGAAGAGGUGGCCUCAUGGAUCGUGGUGGUCCCGGUGGAAUGUUCAGAGGUGGCCGUGGUGGAGACAG` has a log2 enrichment of 0.0404.
`UGGGAGGUGGAUUUUGUUUAUUUUUUUAGCUCAUUUCCAGGGGUGGGAAUUGUUUUUUAAUAUGUGUCAUGAAUAAAGUUGUUUUUGAAA` gave a log2 enrichment of 0.27.
`UAACUUUAGAGGAGGAUCUGAUGGAUAUGGCAGUGGACGUGGAUUUGGGGCUGGCUAUAAUGGGUAUGGAGGAGGACCUGGAGGUGGCAA` has a log2 enrichment of 0.124.
`UGGCCCUGGUGGCAUGCGGGGAGGAAGAGGUGGCCUCAUGGAUCGUGGCGGUCCCGGUGGAAUGUUCAGAGGUGGCCGUGGUGGAGACAG` gave a log2 enrichment of -0.0409.
`CUGUGCUACACAUCGUAUGUACCGAAUCGGGGCCCCCCCGGCCCCCCCGGGGCCCCCCCGGGAAAGUAUUAUGUUACGCCGUUCGGAUCU` has a log2 enrichment of -1.04.
`CCUGUGCUACACAUCGUAUGUACCGAAUCGGGGAAAAAAAGGGGAAAAAAAGGGGAGGGGAAAGUAUUAUGUUACGCCGUUCGGAUCUGC` gave a log2 enrichment of 0.114.

Study 2
Target: Histone acetyltransferase KAT6A, winged helix 2, GST fusion (KAT6A, Homo sapiens, UniProt Q92794, residues 85-181)
Technique: protein binding microarray
Molecule type: double-stranded DNA, one strand shown
Matrix: in vitro
Concentration: not given
Setting: 8-mer, flanks averaged, mean of 2 arrays, mostly near background
Relative to: not given
Reading: higher = stronger binding
Construct (chain): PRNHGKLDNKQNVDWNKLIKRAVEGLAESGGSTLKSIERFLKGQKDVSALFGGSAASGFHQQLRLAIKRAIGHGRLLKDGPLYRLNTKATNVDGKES
`GTTGTCTA` gave an E-score of -0.0704.
The E-score of `TGTATAAA` is reported as 0.0557.
For `AGGGCTCG`, the E-score was 0.0922.
With `ACGTTAGG` the E-score was -0.255.
For `CGTCTTCA`, the E-score was 0.0334.
The E-score of `AGATGAAC` is reported as 0.0772.
`GCATACGC` has an E-score of 0.0863.
The E-score of `AAACAAAG` is reported as -0.0625.
`AAGTTACA` has an E-score of -0.0713.
For `CTAACCCA`, the E-score was -0.0655.
With `TCCAAAAA` the E-score was 0.0548.
With `CAAAAAAC` the E-score was 0.117.
The E-score of `ATCTATCC` is reported as -0.0434.
With `CCTTAGAG` the E-score was -0.0432.
`GTTATCTA` has an E-score of -0.176.
`AAAAATAG` has an E-score of -0.0299.

Study 3
Target: RNA binding protein fox-1 homolog 2, RRM domain, GST-SBP tag (RBFOX2, Homo sapiens, UniProt O43251-10, residues 100-194)
Technique: RNA Bind-n-Seq
Molecule type: RNA
Matrix: in vitro
Concentration: 365 nM
Setting: natural RNA segment, single round, ends assumed
Relative to: no-protein control
Reading: higher = stronger binding
Constant ends, left off below: GGGAGUUCUACAGUCCGACGAUC … UGGAAUUCUCGGGUGCCAA
Construct (chain): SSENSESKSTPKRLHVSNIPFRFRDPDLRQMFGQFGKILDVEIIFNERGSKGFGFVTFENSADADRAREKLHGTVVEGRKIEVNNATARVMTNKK
For `AAGCUUCAGUGACUGUCCCUUUGAAUUGCCUCCGAUUUCAAAAAUAAAUAAAUAAAUCUACACGUUUCUUUUGCUGUCUAGUGCUCACUCUUGUGAAAUGCAGAAAAAGU`, “RBNS enrichment (R)” read 0.72.
`UGCAGAGGUGGCAUCCAGUGUGGGCCCUAGCACUCCAGAGACUGGCCCGGGCGUGCACUAGGCGGGGCAAGAGGAAGCACGUCCCCAAGUUGAUUGUAGUUGUCCCGUCC`: “RBNS enrichment (R)” 5.77.
`CCAUGUAAUUUUCCCACUGCCACAGACCUCUCCAACCCAGGGCCCCUGGACAGCACAGAUCCAGUGUGUUGCUGGCACUUGAGGUGUAAUAAAUGGCCUGGGGUGCUGCC` — result for “RBNS enrichment (R)”: 0.474.
Under “RBNS enrichment (R)”, `ACGGCAUGCAGAAGGCUUUAUUUUAAAGUCAUUCCAUCAGAGGUGUUCUCAGAAUUAGACCCCACCUGUACUGUGUUCUAACACUGAGGGUGGUGGCACCUGAUUCAGAG` is recorded as 0.265.
Under “RBNS enrichment (R)”, `GGAGAUGAGUGUUGAGGCUGACGACCUCCCAGAGGCAAUCUCUGGAUCUGGAACUUUGGGCAUCAUCGGAGGACCGGCUCUGAGCACGCCUCCGCCUCAGCGCACGCCUC` is recorded as 0.241.
`UGUGGCCUUUUUUUCAUUUAGCCAUUGCACAGUCAGCUGCAGAAGUCCUGCUGACCACCUAGUCAUGGACAAAGGCCCAGGACCAGUGACACCCUGCGUCCCUGUGUGCA` — result for “RBNS enrichment (R)”: 0.445.
For `UCUCUCCCUAGUGUCCCUUCAGCCUGGGCUGACCAGUGCCCGCCUCUGGGCUUGACCAGUUCCCAAUCUCGUCCUCUGUCCCCAACUUCUUAAGCACAAUUGGGCUUCUU`, “RBNS enrichment (R)” read 0.488.
`CAGAAACAAGCCUUGCCUGUGCAUCCUGGAGAGUUAGGUCCUUCAGAAGGCCAGAGCUGGGACAAGCCUUGACCCGUUCUGCAGCCCUUAGAGCCUUCACACGUGAGCAC` — result for “RBNS enrichment (R)”: 12.3.
For `UAACCUUAGUUAGAGCCUACCUUUUGCAGUUUCUAAAUUGCUAUUAUAGUGUACAGUUCAAUUAGUAUAUGGGUUUUUUUUUCCAGGUGUUUUAUUUUUAUCCACUGUUU`, “RBNS enrichment (R)” read 0.503.
Under “RBNS enrichment (R)”, `UCUCUGACUCUUGCCUUUCCACCUGCUUUCUCCUGGGCCCGCUUUGCCUGCUUGAAGGAACAGUGCUGUUCUGGAGCUGCUGUUCCAACAGACAGGGCCUAGCUUUCAUU` is recorded as 0.717.
For `CUGUUCUACAUAGUGAGUUCCAGGCCAGCCAAGACUACAUAGAGCAAUAAAGCCUGGUCUUUCUGUCUUUUCACAGAAAAUAAUAGUUCCUUUUAGGAUCUAGACAUACG`, “RBNS enrichment (R)” read 0.288.
Under “RBNS enrichment (R)”, `CCAGUUGGAUUACAGGAAUACUUGAAAGUUACUUUCUACCACUAUUAGAAAAUAUGAAGUCGCAUGCACUGGAUAUCUAUAUAUCAUUAGGUUUUUGUUGUGUUUUUGGU` is recorded as 13.2.

Study 4
Target: Sal-like protein 4, full length isoform A (SALL4, Homo sapiens, UniProt Q9UJQ4, residues 1-1053)
Sequence of UniProt Q9UJQ4 (whole entry, looked up): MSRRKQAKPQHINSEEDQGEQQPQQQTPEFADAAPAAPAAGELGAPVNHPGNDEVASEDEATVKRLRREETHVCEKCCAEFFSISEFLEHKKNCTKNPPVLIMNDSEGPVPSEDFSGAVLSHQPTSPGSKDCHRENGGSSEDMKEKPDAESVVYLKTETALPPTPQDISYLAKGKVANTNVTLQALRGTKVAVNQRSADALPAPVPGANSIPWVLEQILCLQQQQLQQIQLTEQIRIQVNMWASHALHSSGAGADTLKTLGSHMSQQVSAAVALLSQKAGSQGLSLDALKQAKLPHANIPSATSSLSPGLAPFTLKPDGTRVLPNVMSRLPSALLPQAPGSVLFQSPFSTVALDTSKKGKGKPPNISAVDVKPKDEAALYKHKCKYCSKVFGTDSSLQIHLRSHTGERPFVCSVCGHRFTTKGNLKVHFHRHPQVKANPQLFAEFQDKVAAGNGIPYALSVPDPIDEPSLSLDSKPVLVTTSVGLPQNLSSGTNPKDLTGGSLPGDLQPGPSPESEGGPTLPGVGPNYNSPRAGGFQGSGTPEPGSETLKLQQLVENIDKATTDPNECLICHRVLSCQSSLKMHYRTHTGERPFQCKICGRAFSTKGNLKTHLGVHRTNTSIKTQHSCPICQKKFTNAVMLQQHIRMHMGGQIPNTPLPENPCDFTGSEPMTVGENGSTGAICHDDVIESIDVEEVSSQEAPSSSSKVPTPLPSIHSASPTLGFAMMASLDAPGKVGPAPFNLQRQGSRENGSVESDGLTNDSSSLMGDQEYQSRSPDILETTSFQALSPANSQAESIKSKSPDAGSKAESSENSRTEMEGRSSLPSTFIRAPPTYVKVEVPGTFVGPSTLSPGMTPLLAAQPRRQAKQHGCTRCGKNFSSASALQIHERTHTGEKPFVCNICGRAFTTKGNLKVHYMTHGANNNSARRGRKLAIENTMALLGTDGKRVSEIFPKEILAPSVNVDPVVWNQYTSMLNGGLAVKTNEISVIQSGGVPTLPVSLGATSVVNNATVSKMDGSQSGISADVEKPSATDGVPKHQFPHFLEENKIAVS
Technique: universal PBM
Molecule type: double-stranded DNA, one strand shown
Matrix: in vitro
Concentration: 600 nM
Setting: 8-mer, flanks averaged, mean of replicates
Reading: higher = stronger binding
`ATTAGGCC` has an E-score of -0.00908.
`AAGCAAAG` has an E-score of 0.0717.
`AAGACCGC` has an E-score of -0.0871.
For `TCAAACGA`, the E-score was 0.12.
`TACTTCGA` has an E-score of 0.207.
`CGCTGCAG` has an E-score of -0.223.
For `AGGCTCAA`, the E-score was -0.034.
The E-score of `GGCTAAGA` is reported as -0.0977.
`ACGTCTCT` has an E-score of -0.106.
With `CCGTCGAC` the E-score was -0.286.
`ACAGACAG` gave an E-score of 0.00782.
`ACCTCTCC` has an E-score of -0.0367.
For `CATGGTTA`, the E-score was 0.219.
`TCGATACA` has an E-score of 0.184.
For `GACAGCGC`, the E-score was -0.149.
The E-score of `GAACACCA` is reported as -0.0903.
With `AATCAGCT` the E-score was 0.129.
With `AGCCCTAC` the E-score was -0.0624.
`ACTGTCAT` gave an E-score of 0.132.

Excerpt of the above (study 2):
With `CAAAAAAC` the E-score was 0.117.
With `TCCAAAAA` the E-score was 0.0548.
`AAGTTACA` has an E-score of -0.0713.
The E-score of `AGATGAAC` is reported as 0.0772.
With `CCTTAGAG` the E-score was -0.0432.
